Assay results collected from several papers.
Each line is one published result; not all experiments were run side by side. ± gives the spread as reported.

SMILES | tested on | assay | test system | conditions | scale | endpoint | value
O=C(N/N=C/c1cc[n+](CC2CC2)c2ccccc12)c1cccc(C(=O)N/N=C/c2cc[n+](CC3CC3)c3ccccc23)c1 | 22CTA telomeric G4-DNA antiparallel | FRET melting |  | 1 µM, K10 buffer, DNA 0.2 µM |  | ΔTm | 11.9 ± 0.8 °C
C=CC(=O)N1[C@@H](c2ccc3c(c2)OCO3)c2[nH]c3ccccc3c2C[C@H]1C(=O)N1CCN(C)CC1 | CCNE1 WT-3xFLAG:CDK2 complex | co-IP TMT proteomics, refers to: NUP35 | HEK-293T | 20 µM, 6 h | baseline: DMSO | log2 fold change | -0.12
C[n+]1ccc(/C=N/NC(=O)c2cc(C(=O)N/N=C/c3cc[n+](C)cc3)ncn2)cc1 | 22CTA telomeric G4-DNA antiparallel | FRET melting |  | 1 µM, K10 buffer, DNA 0.2 µM, together with: ds26 10 µM |  | ΔTm | 0.9 ± 0.6 °C
COC1CN([C@H]2CC[C@H]([C@@]3(C)Oc4c(Cl)cc(C(=O)NCc5c(SC)cc(C)[nH]c5=O)c(C)c4O3)CC2)C1 |  | RNA-seq, refers to: P2RY14 mouse homolog | mouse, HT-1376 xenograft, whole blood | dose not given | baseline: vehicle | log2 fold change | 0.934
O=C(N/N=C/c1ccc(C[n+]2ccccc2)cc1)c1ccc2ccc(C(=O)N/N=C/c3ccc(C[n+]4ccccc4)cc3)nc2n1 | 22CTA telomeric G4-DNA antiparallel | FRET melting |  | 1 µM, K10 buffer, DNA 0.2 µM, together with: ds26 10 µM |  | ΔTm | 13.9 ± 0.2 °C
F[C@@H]1[C@H](c2ccc(-c3cnc(N4CCOCC4)nc3)cc2)[C@H](F)[C@H](F)C[C@@H]1F |  | hepatocyte stability | cryopreserved mouse hepatocytes | 1 µM |  | hepatic clearance | 33 mL/min/kg
CCN(CC)CC(=O)Nc1cccc(-n2cc(-c3ccc4ccc(-c5cn(-c6cccc(NC(=O)CN(CC)CC)c6)nn5)cc4c3)nn2)c1 | RCC4 | PCR angiogenesis array, refers to: MDK |  | 5 x IC50, 6 h, normoxia | baseline: untreated | fold regulation | 1.06
CNS(=O)(=O)Nc1nccc(Cc2c(C)c3ccc(Oc4ncccc4F)cc3oc2=O)c1F | SKM-1 | cell viability |  | 7 days |  | IC50 | 3.95 nM
C[n+]1cccc2cc(/C=N/NC(=O)c3cc(C(=O)N/N=C/c4ccc5c(ccc[n+]5C)c4)ncn3)ccc21 | 22CTA telomeric G4-DNA antiparallel | FRET melting |  | 1 µM, K10 buffer, DNA 0.2 µM |  | ΔTm | 3.9 ± 0.9 °C
O=C(CC1CCOCC1)Nc1ccc([C@H]2[C@@H](F)[C@@H](F)C[C@@H](F)[C@H]2F)cc1 |  | hepatocyte stability | cryopreserved human hepatocytes | 1 µM |  | hepatic clearance | 6.2 mL/min/kg
Cc1ncsc1-c1ccc(C(C)NC(=O)C2CC(O)CN2C(=O)C(NC(=O)CCCCCCCCCCN2CCCC(Nc3ncc(Cl)c(Nc4ccccc4S(=O)(=O)C(C)C)n3)C2)C(C)(C)C)cc1 (centres unmarked) | 22Rv1 | RNA-seq, refers to: ZNF66 mRNA |  | concentration not given | baseline: DMSO | log2 fold change | -2.71
CN1CCCNC(=O)c2cccc(c2)C(=O)NCCCN(C)CCCNc2cccc3c2C(=O)c2cccc(c2C3=O)NCCC1 | SAS | RNA-Seq, refers to: LTN1 mRNA |  | 1 µM, 6 h | baseline: untreated cells | log2 fold change | 1.06
Nc1ncc(-c2cc(-c3cnn(CC(F)(F)F)c3)ncc2F)nc1C(=O)NC1CNCC(F)C1 (centres unmarked) | PAK7 | KINOMEscan |  | 1 µM | baseline: DMSO control | remaining binding | 73%
C=CC(=O)Nc1cccc(Cn2ncc3cnc(Nc4cnn(CCOC)c4)nc32)c1 | human MLCK | KINOMEscan |  | 100 nM | baseline: control | binding | 81%

A few entries again:
SMILES | tested on | assay | test system | conditions | scale | endpoint | value
O=C(N/N=C/c1cc[n+](CC2CC2)c2ccccc12)c1cccc(C(=O)N/N=C/c2cc[n+](CC3CC3)c3ccccc23)c1 | 22CTA telomeric G4-DNA antiparallel | FRET melting |  | 1 µM, K10 buffer, DNA 0.2 µM |  | ΔTm | 11.9 ± 0.8 °C
C=CC(=O)N1[C@@H](c2ccc3c(c2)OCO3)c2[nH]c3ccccc3c2C[C@H]1C(=O)N1CCN(C)CC1 | CCNE1 WT-3xFLAG:CDK2 complex | co-IP TMT proteomics, refers to: NUP35 | HEK-293T | 20 µM, 6 h | baseline: DMSO | log2 fold change | -0.12
